Experimental data from different studies.
Values joined by “and” are separate records of one study, mostly repeats; a detail may differ. ± marks the error that the study gave.
Chain of UniProt P20813 (whole entry, looked up): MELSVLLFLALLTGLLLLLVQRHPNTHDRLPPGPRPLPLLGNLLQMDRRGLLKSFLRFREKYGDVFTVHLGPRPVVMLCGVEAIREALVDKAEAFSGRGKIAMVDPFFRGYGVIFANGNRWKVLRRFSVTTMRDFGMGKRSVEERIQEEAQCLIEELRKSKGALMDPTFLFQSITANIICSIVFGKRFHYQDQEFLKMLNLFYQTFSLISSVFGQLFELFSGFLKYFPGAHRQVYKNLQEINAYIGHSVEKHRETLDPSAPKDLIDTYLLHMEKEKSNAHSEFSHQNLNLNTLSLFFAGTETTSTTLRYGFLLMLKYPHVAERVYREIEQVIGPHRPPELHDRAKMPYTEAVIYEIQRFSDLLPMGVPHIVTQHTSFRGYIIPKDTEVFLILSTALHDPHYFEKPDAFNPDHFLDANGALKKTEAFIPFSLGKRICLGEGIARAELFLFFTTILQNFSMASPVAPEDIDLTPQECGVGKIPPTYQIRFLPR
Chain of UniProt P10632 (whole entry, looked up): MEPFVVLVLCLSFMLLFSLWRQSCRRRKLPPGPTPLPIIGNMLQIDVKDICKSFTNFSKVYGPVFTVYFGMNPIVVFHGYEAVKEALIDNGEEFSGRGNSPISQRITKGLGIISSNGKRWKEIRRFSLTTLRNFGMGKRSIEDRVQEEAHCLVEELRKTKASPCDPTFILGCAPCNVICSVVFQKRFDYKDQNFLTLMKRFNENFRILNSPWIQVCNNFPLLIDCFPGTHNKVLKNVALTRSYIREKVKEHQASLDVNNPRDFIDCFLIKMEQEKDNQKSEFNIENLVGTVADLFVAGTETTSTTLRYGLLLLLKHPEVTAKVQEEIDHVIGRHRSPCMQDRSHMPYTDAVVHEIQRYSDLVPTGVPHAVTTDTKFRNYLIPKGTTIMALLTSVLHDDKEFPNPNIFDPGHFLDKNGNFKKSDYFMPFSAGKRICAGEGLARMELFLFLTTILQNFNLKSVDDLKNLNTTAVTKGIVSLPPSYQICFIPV
Chain of UniProt O75469 (whole entry, looked up): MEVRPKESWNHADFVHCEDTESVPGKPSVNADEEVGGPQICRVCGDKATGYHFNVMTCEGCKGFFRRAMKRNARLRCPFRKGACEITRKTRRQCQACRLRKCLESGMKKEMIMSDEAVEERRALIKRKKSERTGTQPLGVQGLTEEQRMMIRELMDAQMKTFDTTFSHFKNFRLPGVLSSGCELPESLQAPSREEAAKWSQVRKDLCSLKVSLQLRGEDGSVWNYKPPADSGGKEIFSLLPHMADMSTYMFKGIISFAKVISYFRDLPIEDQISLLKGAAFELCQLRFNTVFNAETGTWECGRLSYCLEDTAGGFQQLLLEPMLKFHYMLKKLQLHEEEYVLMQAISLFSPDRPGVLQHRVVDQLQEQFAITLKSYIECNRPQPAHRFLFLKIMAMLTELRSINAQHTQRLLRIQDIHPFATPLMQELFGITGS

SMILES = COc1cccc(OC)c1-c1cc(C(=O)NC2(C(=O)O)C3CC4CC(C3)CC2C4)nn1-c1ccc(C(=O)NCCNC(=O)[C@H](CCCCNC(=O)[C@H](CC(C)C)NC(=O)C2OC2C(=O)O)NC(=O)CN2CCN(CC(=O)[O-])CCN(CC(=O)[O-])CCN(CC(=O)[O-])CC2)cc1C(C)C.[177Lu+3] (mixture of isomers); target or system = HT-29 tumour model; system = host not given, blood; conditions = 24 h, tumour-bearing; measurement = tracer uptake; result = 0.56 %ID/g
SMILES = O=C1C2CC3CC1CC(C(=O)N1CCN(c4ccc([N+](=O)[O-])c5ncccc45)CC1)(C3)C2; target or system = Salmonella typhimurium; assay = Ames test; system = TA1535; conditions = 0.05 µg/well, without S9; scale = baseline: vehicle; measurement = revertant fold increase; result = 0.4
SMILES = CC[C@H](C)[C@H](NC(=O)C[C@H](NC(=O)CN1CCN2CCN(CC1)CC(=O)[O][Al]([18F])[O]C(=O)C2)C(=O)O)C(=O)N[C@H]1CCc2cccc3c2N(C1=O)[C@H](C(=O)NCc1cn[nH]n1)C3; target or system = MC-38 tumour model; system = host not given, intestine; conditions = 30 min, tumour-bearing; measurement = tracer uptake; result = 0.5 %ID/g
SMILES = CCN(CC)CC#CCNc1ccnc2cc(Cl)ccc12; target or system = Salmonella typhimurium; assay = mini-Ames test; system = TA102; conditions = 125.0 µg/well, without S9; measurement = revertants; result = 70 revertants/well and 76 revertants/well
SMILES = COc1cccc(OC)c1-c1cc(C(=O)NC2(C(=O)O)C3CC4CC(C3)CC2C4)nn1-c1ccc(C(=O)N(C)CCOCCN(C)C(=O)[C@H](CCCCNC(=O)[C@H](CC(C)C)NC(=O)C2OC2C(=O)O)NC(=O)CN2CCN(CC(=O)[O-])CCN(CC(=O)[O-])CCN(CC(=O)[O-])CC2)cc1C(C)C.[177Lu+3] (mixture of isomers); target or system = HT-29 tumour model; system = host not given, blood; conditions = 24 h, tumour-bearing; measurement = tracer uptake; result = 0.4 %ID/g
SMILES = CC[C@H](C)[C@H](NC(=O)[C@H](Cc1ccccc1)NC(=O)[C@H](CCC(=O)O)NC(=O)[C@H](CCCCN)NC(=O)[C@H](C)NC(=O)[C@H](C)NC(=O)[C@H](CCC(N)=O)NC(=O)CNC(=O)[C@H](CCC(=O)O)NC(=O)[C@H](CC(C)C)NC(=O)[C@H](Cc1ccc(O)cc1)NC(=O)[C@H](CO)NC(=O)[C@H](CO)NC(=O)[C@@H](NC(=O)[C@H](CC(=O)O)NC(=O)[C@H](CO)NC(=O)[C@@H](NC(=O)[C@H](Cc1ccccc1)NC(=O)[C@@H](NC(=O)CNC(=O)[C@H](CCC(=O)O)NC(=O)[C@H](C)NC(=O)[C@@H](N)Cc1c[nH]cn1)[C@@H](C)O)[C@@H](C)O)C(C)C)C(=O)N[C@@H](C)C(=O)N[C@@H](Cc1c[nH]c2ccccc12)C(=O)N[C@@H](CC(C)C)C(=O)N[C@H](C(=O)N[C@@H](CCCCN)C(=O)NCC(=O)N[C@@H](CCCN=C(N)N)C(=O)NCC(=O)O)C(C)C; target or system = DPP-4 (recombinant); assay = substrate, LC-MS; conditions = 500 µM, 1 h; measurement = remaining peptide; result = ~79%
SMILES = CNC(=O)C1CCCN(C(=O)C2CC3CCC2N3C(=O)[C@@H]2C[C@@H](O)CN2C(=O)NCc2cccc(Cl)c2F)C1 (mixture of isomers); target or system = Cytochrome P450 2B6 (CYP2B6, Homo sapiens, UniProt P20813); assay = preincubation without NADPH; system = human; conditions = 0.617 µM; scale = baseline: negative control; measurement = remaining activity; result = 101% and 102%
SMILES = N#Cc1ccnc(N2C(=O)CC[C@H]2C(=O)N(c2cc(F)cc(F)c2)[C@H](C(=O)NC2CC(F)(F)C2)c2ccccc2Cl)c1 (stereo in doubt); target or system = NR1I2 (Homo sapiens, UniProt O75469); assay = reporter gene, agonist; conditions = 10 µM; scale = baseline: rifampicin; measurement = activation; result = 70%
SMILES = O=c1c2ccccc2n(CC2CC2)c(=O)n1O; target or system = MDCK; system = Caco-2; conditions = 10 µM; measurement = Papp A→B; result = 411 nm/s
SMILES = CC(C)Cc1ccc(C(C)C(=O)N[C@@H](CCCCNC(=O)CCOCCOCCOCCOCCOCCOCCNC(=O)CN2CCN(CC(=O)[O-])CCN(CC(=O)[O-])CCN(CC(=O)[O-])CC2)C(=O)Nc2cccc3c(C(=O)NCC(=O)N4CC(F)(F)C[C@H]4C#N)ccnc23)cc1.[177Lu+3] (stereo partly shown); target or system = U-87 MG tumour model; system = host not given, bone; conditions = 1 h, tumour-bearing; measurement = tracer uptake; result = 10.2 %ID/g
SMILES = CC(C)OCCOCc1ccc(OCC(O)CN(N=O)C(C)C)cc1 (stereo not shown); target or system = Salmonella typhimurium; assay = Ames test; system = TA1537; conditions = 5000 µg/plate, without metabolic activation; scale = baseline: solvent control; measurement = revertant fold increase; result = 0.4 fold
SMILES = N=C(N)NCCC[C@@H]1NC(=O)[C@H](CCCNC(=N)N)NC(=O)[C@@H](CCCNC(=N)N)NC(=O)[C@@H](CCCNC(=N)N)NC(=O)[C@@H](C(c2ccccc2)c2ccccc2)NC(=O)[C@@H](Cc2c[nH]c3ccccc23)NC(=O)[C@@H](C(c2ccccc2)c2ccccc2)NC1=O; target or system = HEKa; assay = cell growth or viability, MTS; conditions = 200 µg/mL, 24 h; measurement = viability; result = 49%
SMILES = CC[C@H](C)C(=O)O[C@H]1C[C@@H](C)C=C2C=C[C@H](C)[C@H](CC[C@@H]3CC=CC(=O)O3)[C@H]21; target or system = T84; assay = MTT; conditions = 50 µM, 24 h; measurement = viability reduction; result = ~30%
SMILES = O=C1NC2(CC2)COc2ncc(F)cc2[C@H]2COCCN2c2ccn3ncc1c3n2; target or system = Salmonella typhimurium; assay = Ames test; system = TA102; conditions = 1500 µg/plate, 48 h, together with: without S9; measurement = revertant colonies; result = 388 ± 5 revertants/plate
SMILES = C=C(NC(=O)c1csc(-c2nc3c(cc2O)-c2nc(cs2)C(=O)NC(C(C)O)C(=O)NC(=C(C)OC)c2nc(cs2)C(=O)NC2c4nc(cs4)C(=O)NC(COC(=O)c4c5c6c(cccc6n4O)COC(=O)C(OC4CC(C)(O)C(N(C)C)C(C)O4)C2OC5)c2nc-3cs2)n1)C(N)=O (stereo not shown); system = ICR mice, Streptococcus pneumoniae ATCC 49169 infected, immunocompromised, blood; conditions = intravenous, 2 mg/kg/day once daily; measurement = AUC(0-inf); result = 0.0598 µg·h/mL
SMILES = N#C[C@@H]1CC(F)(F)CN1C(=O)CNC(=O)c1ccnc2c(NC(=O)CCOCCOCCOCCOCCOCCOCCNC(=O)[C@H](CCCCNC(=O)CN3CCN(CC(=O)[O-])CCN(CC(=O)[O-])CCN(CC(=O)[O-])CC3)NC(=O)CCCc3ccc(I)cc3)cccc12.[177Lu+3]; target or system = U-87 MG tumour model; system = host not given, liver; conditions = 1 h, tumour-bearing; measurement = tracer uptake; result = 2.89 %ID/g
SMILES = COC(=O)Nc1nc2cc(C(O)c3ccc(F)cc3)ccc2[nH]1 (stereo not shown); target or system = Salmonella typhimurium; assay = Ames preincubation test; system = TA1535; conditions = 109.4 µg/plate, without S9; measurement = revertants; result = 19 revertants/plate
SMILES = N#C[C@@H]1CC(F)(F)CN1C(=O)CNC(=O)c1ccnc2c(NC(=O)[C@H](CCCCNC(=O)CCOCCOCCOCCOCCOCCOCCNC(=O)CN3CCN(CC(=O)[O-])CCN(CC(=O)[O-])CCN(CC(=O)[O-])CC3)NC(=O)CCCc3ccc(I)cc3)cccc12.[177Lu+3]; target or system = U-87 MG tumour model; system = host not given, stomach; conditions = 72 h, tumour-bearing; measurement = tracer uptake; result = 0.2 %ID/g
SMILES = NC(=O)c1ccc(C(=O)NOCc2ccc(Sc3cccc(Cl)c3)c(C(F)(F)F)c2)cc1; target or system = Cytochrome P450 2C8 (CYP2C8, Homo sapiens, UniProt P10632); system = pooled human liver microsomes; conditions = 5 min; measurement = IC50; result = > 30 µM

For quick reference, copied from above:
SMILES = CNC(=O)C1CCCN(C(=O)C2CC3CCC2N3C(=O)[C@@H]2C[C@@H](O)CN2C(=O)NCc2cccc(Cl)c2F)C1 (mixture of isomers); target or system = Cytochrome P450 2B6 (CYP2B6, Homo sapiens, UniProt P20813); assay = preincubation without NADPH; system = human; conditions = 0.617 µM; scale = baseline: negative control; measurement = remaining activity; result = 101% and 102%
SMILES = N#Cc1ccnc(N2C(=O)CC[C@H]2C(=O)N(c2cc(F)cc(F)c2)[C@H](C(=O)NC2CC(F)(F)C2)c2ccccc2Cl)c1 (stereo in doubt); target or system = NR1I2 (Homo sapiens, UniProt O75469); assay = reporter gene, agonist; conditions = 10 µM; scale = baseline: rifampicin; measurement = activation; result = 70%
